Published values pooled from the literature.
Each line is one published result; not all experiments were run side by side. ± marks the error that the study gave.
rep main protease: Replicase polyprotein 1ab, main protease (rep, Severe acute respiratory syndrome coronavirus 2, UniProt P0DTD1)

Compound	target or system	assay	test system	setting	how to read	measurement	result
CC(=O)O[C@@H]1[C@H](N)[C@@H](OP(=O)(O)O)[C@@]2(C(=O)O)CS[C@@](O)(C(N)=O)[C@@H]1O2	DNA-directed RNA polymerase subunit beta' / DNA-directed RNA polymerase subunit beta (rpoC/rpoB, Escherichia coli, UniProt P0A8T7+P0A8V2, H936A)	binding to elongation complex, 6-MI fluorescence titration	β′H936A RNAP	riboside RNA 3′-end adenine		Kd	0.94 ± 0.15 µM
O=c1ccn([C@@H]2O[C@](F)(CO)[C@@H](O)[C@H]2O)c(=O)[nH]1	Junin virus	viral replication	Vero, recombinant Romero			EC90	0.0072 ± 0.0019 µM
Cc1nc(C)c(CNC(=O)c2ccc(NC(=O)c3ccoc3C)cc2)s1	Lassa mammarenavirus	viral replication	Huh-7	10 µM, 72 h		remaining activity	40%
CN1[C@@H]2CC[C@H]1C[C@@H](OC(c1ccccc1)c1ccc(Cl)cc1)C2 (some centres unmarked)	SARS-CoV-2	viral replication, GFP plate reader screen		cell-based		EC50	9.77 µM
O=C(/C=C/c1ccc(O)c(O)c1/C=C/c1ccc(O)c(O)c1)O[C@H](Cc1ccc(O)c(O)c1)C(=O)O	SARS-CoV-2	viral cytopathic effect	Vero E6	6.25 µM		mean inhibition	0%
O=C(Nc1ncc(Cc2ccccc2)s1)C1CCOCC1	Histoplasma capsulatum	microbial growth				MIC	> 20 µM
CC(C)C[C@H](NC(=O)[C@H](CC(=O)O)NC(=O)CNC(=O)[C@H](CCCNC(=N)N)NC(=O)[C@H](CC(C)C)NC(=O)[C@H](CC(N)=O)NC(=O)[C@@H]1CCCN1C(=O)[C@@H](NC(=O)[C@H](C)NC(=O)[C@H](CC(N)=O)NC(=O)CCOCCOCCOCCOCCOCCOCCOCCOCCOCCOCCOCCOCCOCCOCCOCCOCCOCCOCCOCCOCCOCCOCCOCCOCCOCCOCCOCCOCCNC(=O)CCOCCOCCOCCOCCOCCOCCOCCOCCOCCOCCOCCOCCOCCOCCOCCOCCOCCOCCOCCOCCOCCOCCOCCOCCOCCOCCOCCOCCNC(=O)c1ccc(F)cc1)C(C)C)C(=O)N[C@@H](CCC(N)=O)C(=O)N[C@H](C(=O)N[C@@H](CC(C)C)C(=O)N[C@@H](C)C(=O)N[C@@H](CCC(N)=O)C(=O)N[C@@H](CCCCN)C(=O)N[C@H](C(=O)N[C@@H](C)C(=O)N[C@@H](CCCNC(=N)N)C(=O)N[C@H](C(N)=O)[C@@H](C)O)C(C)C)C(C)C [fluorine-18 labelled]			male athymic nude mice, DX3puroβ6 xenograft, αvβ6-positive DX3puroβ6 tumour	intravenous, 1 h		tissue uptake	0.52 ± 0.09 %ID/g
COc1cccc2c1OCC(CNC(=O)c1cc(C3CC3)n[nH]1)C2 (centres unmarked)	Lassa mammarenavirus	viral replication	Huh-7	10 µM, 72 h		remaining activity	46%
OC(COc1cccc(OCC(O)CN2CCCCC2)c1)CN1CCCCC1 (centres unmarked)	SARS-CoV			concentration not given, compound absent at entry stage		plaque formation	no effect
CNC(=O)[C@H](Cc1c[nH]c2ccccc12)NC(=O)[C@@H](CC(=O)NO)CC(C)C	rep main protease	reporter gene (mKate2), inhibitor		20 µM		inhibition	-0.848%
Cc1ccc(-c2cccc(CN3CCCC(c4nc5ccc(C)cc5c(=O)[nH]4)C3)c2)c(C)c1 (centres unmarked)	SARS-CoV-2	cytopathic effect, cell-based CPE	USA_WA1/2020	round 2, 5-point dilution		AC50	10 µM
CCc1c(C(=O)C(N)=O)c2c(OCC(=O)O)cccc2n1Cc1ccccc1	Daboia russelii		mouse	intravenous, 120 µg/mouse, 24 h, drug mixture, added: AP venom 2.5 x LD50 preincubated		survival	0%
CC1CCCN(CCCNC(=O)c2cc(Sc3ccc(F)cc3)nc3ccccc23)C1 (centres unmarked)	SARS-CoV-2	cytopathic effect	USA_WA1/2020	first round 5-point		AC50	12.6 µM
CC(C)N1CCC(NC(=O)c2ccc(Cl)cc2Cl)CC1	influenza A virus H5N1 A/Vietnam/1203/04					effective antiviral concentration	5 µM
CCOCC(=O)N1CC(=O)N[C@@H](CC(C)C)c2nc(cs2)C(=O)N[C@@H](Cc2ccccc2)c2nc(C)nn2CC(=O)N[C@@H](C(C)C)C1	Lassa mammarenavirus	viral replication	Huh-7	10 µM, 72 h		remaining activity	107%
CN1CCN(CCCN2c3ccccc3Sc3ccc(C(F)(F)F)cc32)CC1	SARS-CoV-2	viral replication, high-content imaging screen		cell-based		EC50	> 100 µM
CC(C)=CCc1c(O)ccc(C(=O)/C=C/c2ccc(O)cc2)c1O	SARS-CoV-2	cytopathic effect	Vero E6	1.562 µM, replicate run		mean inhibition	0%
O=C(CCc1ccc(CC2CCN(Cc3c[nH]c4ccccc34)CC2)cc1)N1CCCC1	SARS-CoV-2	cytopathic effect	USA_WA1/2020	round 2, 5-point		maximum response	31.8%
CC[C@@H]([C@H](C)O)n1ncn(-c2ccc(N3CCN(c4ccc(OC[C@@H]5CO[C@@](Cn6cncn6)(c6ccc(F)cc6F)C5)cc4)CC3)cc2)c1=O	SARS-CoV-2	viral replication, high-content imaging screen		cell-based		EC50	> 100 µM
Cc1cc(C)c(CNC(=O)c2cc(Cl)c3c(c2C)O[C@@](C)([C@H]2CC[C@H](N(C)C)CC2)O3)c(=O)[nH]1			human, relapsed/refractory NHL	concentration not given, all TEAEs, grade 5		COVID-19 pneumonia incidence	0%
CCOc1ccccc1CNCc1cccn1-c1nnc(N2CCN(c3ccccc3)CC2)s1	SARS-CoV-2	cytopathic effect	USA_WA1/2020	round 1, 5-point		efficacy	42.4%
CC(=O)OCc1c(C)cc(C)c(CN(C)C(C)c2ccon2)c1C (centres unmarked)	Lassa mammarenavirus	viral replication	Huh-7	10 µM, 72 h		remaining activity	29%
CC(C)(C)c1ccc(C(O)CCCN2CCC(C(O)(c3ccccc3)c3ccccc3)CC2)cc1 (centres unmarked)	rep main protease	reporter gene (mKate2), inhibitor		20 µM		inhibition	-1.59%
CC(=O)c1ccc2c(c1)N(CCCN(C)C)c1ccccc1S2	SARS-CoV-2	viral replication, GFP plate reader screen		cell-based		EC50	> 100 µM

Compound	target or system	assay	test system	setting	how to read	measurement	result
CCn1c(CC2CCN(C(=O)c3ccc(CN(C)C)o3)CC2)nn(C)c1=O	Lassa mammarenavirus	viral replication	Huh-7	10 µM, 72 h		remaining activity	55%
COc1ccc(-c2cn3c(n2)sc2cc(C(=O)NCCCN4CCCCCC4)ccc23)cc1	SARS-CoV-2	cytopathic effect	USA_WA1/2020	retest, 8-point, duplicates		efficacy	70.6%
COc1cccc(C2(C(=O)N3CCC4(CC3)CC(CNS(=O)(=O)N(C)C)CCO4)CCCC2)c1 (centres unmarked)	Venezuelan equine encephalitis virus	viral replication				EC50	20 µM
CC(CN(C)C)CN1c2ccccc2Sc2ccccc21 (centres unmarked)	SARS-CoV-2	viral replication, GFP plate reader screen		cell-based		EC50	17.4 µM
Cc1ccc2nc(Cl)c3cc(C(=O)NCCCN4CCC(C)CC4)sc3c2c1	SARS-CoV-2	cytopathic effect	USA_WA1/2020	retest, 8-point, duplicates		maximum response	88.7%
CC(=O)[C@@]12O[C@](C)(c3ccccc3)O[C@@H]1C[C@H]1[C@@H]3CCC4=CC(=O)CC[C@]4(C)[C@H]3CC[C@@]12C	SARS-CoV-2	viral replication, high-content imaging screen		cell-based		EC50	> 12.6 µM
Nc1ncnc2c1ncn2[C@@H]1O[C@@H]2COP(=O)(O)O[C@H]3[C@@H](O)[C@H](n4cnc5c(=O)[nH]cnc54)O[C@@H]3COP(=O)(O)O[C@H]2[C@H]1O	Chikungunya virus	upregulated Reactome pathway, RNA sequencing, measured: DNA strand elongation (R-HSA-69190)	HFF-1		baseline: CHIKV-infected untreated	fold enrichment	4.14
COc1ccc2cc(C3CN(C(=O)c4ccc[nH]4)CCO3)ccc2c1 (centres unmarked)	Lassa mammarenavirus	viral replication	Huh-7	10 µM, 72 h		remaining activity	42%
CCN(CC)CCNC(=O)c1ccc(-c2nc(CN3CCc4ccccc43)c(C)o2)cc1	SARS-CoV-2	cytopathic effect, cell-based CPE	USA_WA1/2020	round 2, 5-point dilution		AC50	12.6 µM
CCOc1ccc(CN(C)CC2CCCN(CCc3ccccc3OC)C2)cc1 (centres unmarked)	Lassa mammarenavirus	viral replication	Huh-7	10 µM, 72 h		remaining activity	49%
COc1cc2c3cc1Oc1c(OC)c(OC)cc4c1[C@@H](Cc1ccc(O)c(c1)Oc1ccc(cc1)C[C@@H]3N(C)CC2)N(C)CC4	SARS-CoV-2	viral replication, GFP plate reader screen		cell-based		EC50	8.51 µM
Cn1cnc(Cn2c(=O)[nH]/c(=N\c3cc4cn(C)nc4cc3Cl)n(Cc3cc(F)c(F)cc3F)c2=O)n1			human, moderate renal impairment, plasma	oral, 375 mg single dose		terminal elimination rate constant	3.53e-06 s⁻¹
CNC(=O)[C@@H](NC(=O)[C@H](CC(C)C)[C@H](O)C(=O)NO)C(C)(C)C	Daboia russelii		C2C12	100 µM, added: Daboia russelii venom KL	baseline: venom alone	viability difference	-41%
Cn1c(=O)ccc2ccc(F)c(CCNC[C@H]3CN(c4cnc5c(n4)NC(=O)CO5)C(=O)O3)c21	Bacillus anthracis	microbial growth				MIC50	< 0.015 µg/mL
CCc1ccccc1N1CC(c2nc3ccccc3n2CCCCOc2ccccc2OC)CC1=O (centres unmarked)	SARS-CoV-2	cytopathic effect	USA_WA1/2020	round 1, 5-point		efficacy	39.3%
Nc1ncnc2c([C@@H]3N[C@H](CO)[C@@H](O)[C@H]3O)c[nH]c12	Yellow fever virus	viral replication	Vero 76, 17D	3 µM		inhibition	14.8%
COc1c(F)cccc1C(=O)N1CC(=O)N[C@@H](CC(C)C)c2nc(cs2)C(=O)N[C@@H](Cc2ccccc2)c2nc(C)nn2CC(=O)N[C@@H](C(C)C)C1	Lassa mammarenavirus	viral replication	Huh-7	10 µM, 72 h		remaining activity	92%
Cn1cnc(Cn2c(=O)[nH]/c(=N\c3cc4cn(C)nc4cc3Cl)n(Cc3cc(F)c(F)cc3F)c2=O)n1			healthy Japanese adults, plasma	oral, 375 mg, day 1, fasted, with midazolam		Cmax	18100 ng/mL
CC[C@H](C)[C@H](NC(=O)[C@H](CC(C)C)NC(=O)[C@H](Cc1c[nH]c2ccccc12)NC(=O)[C@H](CCC(N)=O)NC(=O)[C@@H](NC(=O)[C@H](Cc1ccccc1)NC(=O)[C@H](C)NC(=O)[C@H](CCCCNC(=O)COCCOCCNC(=O)COCCOCCNC(=O)CC[C@H](NC(=O)CCCCCCCCCCCCCCCCCCC(=O)O)C(=O)O)NC(=O)[C@H](CCC(N)=O)NC(=O)[C@H](C)NC(=O)[C@@H](NC(=O)[C@H](CCCCN)NC(=O)[C@H](CC(=O)O)NC(=O)[C@H](CC(C)C)NC(=O)C(C)(C)NC(=O)[C@@H](NC(=O)[C@H](CO)NC(=O)[C@H](Cc1ccc(O)cc1)NC(=O)[C@H](CC(=O)O)NC(=O)[C@H](CO)NC(=O)[C@@H](NC(=O)[C@H](Cc1ccccc1)NC(=O)[C@@H](NC(=O)CNC(=O)[C@H](CCC(=O)O)NC(=O)C(C)(C)NC(=O)[C@@H](N)Cc1ccc(O)cc1)[C@@H](C)O)[C@@H](C)O)[C@@H](C)CC)[C@@H](C)CC)C(C)C)C(=O)N[C@@H](C)C(=O)NCC(=O)NCC(=O)N1CCC[C@H]1C(=O)N[C@@H](CO)C(=O)N[C@@H](CO)C(=O)NCC(=O)N[C@@H](C)C(=O)N1CCC[C@H]1C(=O)N1CCC[C@H]1C(=O)N1CCC[C@H]1C(=O)N[C@@H](CO)C(N)=O			human	subcutaneous, 10.0 mg once weekly, week 15, multiple doses		CL/F	0.635 mL/min
O=C(Nc1ccc(N2CCN(C(=O)c3cnccn3)CC2)nc1)c1ccc(Cl)cc1Cl	Mycobacterium tuberculosis	bacterial growth	H37Ra-lux	168 h		IC90	> 64 µM
Nc1ccc2cc3ccc(N)cc3nc2c1	SARS-CoV-2	viral replication, high-content imaging screen		cell-based		EC50	> 25.1 µM
O=C(O)COCCN1CCN(C(c2ccccc2)c2ccc(Cl)cc2)CC1 (centres unmarked)	Ebola virus Zaire	HIV/EBOV pseudovirion entry	A549	48 h		IC50	> 100 µM
CC[C@H](C)[C@H](NC(=O)[C@H](CC(C)C)NC(=O)[C@H](Cc1c[nH]c2ccccc12)NC(=O)[C@H](CCC(N)=O)NC(=O)[C@@H](NC(=O)[C@H](Cc1ccccc1)NC(=O)[C@H](C)NC(=O)[C@H](CCCCNC(=O)COCCOCCNC(=O)COCCOCCNC(=O)CC[C@H](NC(=O)CCCCCCCCCCCCCCCCCCC(=O)O)C(=O)O)NC(=O)[C@H](CCC(N)=O)NC(=O)[C@H](C)NC(=O)[C@@H](NC(=O)[C@H](CCCCN)NC(=O)[C@H](CC(=O)O)NC(=O)[C@H](CC(C)C)NC(=O)C(C)(C)NC(=O)[C@@H](NC(=O)[C@H](CO)NC(=O)[C@H](Cc1ccc(O)cc1)NC(=O)[C@H](CC(=O)O)NC(=O)[C@H](CO)NC(=O)[C@@H](NC(=O)[C@H](Cc1ccccc1)NC(=O)[C@@H](NC(=O)CNC(=O)[C@H](CCC(=O)O)NC(=O)C(C)(C)NC(=O)[C@@H](N)Cc1ccc(O)cc1)[C@@H](C)O)[C@@H](C)O)[C@@H](C)CC)[C@@H](C)CC)C(C)C)C(=O)N[C@@H](C)C(=O)NCC(=O)NCC(=O)N1CCC[C@H]1C(=O)N[C@@H](CO)C(=O)N[C@@H](CO)C(=O)NCC(=O)N[C@@H](C)C(=O)N1CCC[C@H]1C(=O)N1CCC[C@H]1C(=O)N1CCC[C@H]1C(=O)N[C@@H](CO)C(N)=O			healthy subjects, single ascending dose	1.0 mg, day 29	baseline: baseline	systolic blood pressure change	1.9 mmHg

Excerpt of the above:
Compound	target or system	assay	test system	setting	how to read	measurement	result
CCn1c(CC2CCN(C(=O)c3ccc(CN(C)C)o3)CC2)nn(C)c1=O	Lassa mammarenavirus	viral replication	Huh-7	10 µM, 72 h		remaining activity	55%
Cc1cc(C)c(CNC(=O)c2cc(Cl)c3c(c2C)O[C@@](C)([C@H]2CC[C@H](N(C)C)CC2)O3)c(=O)[nH]1			human, relapsed/refractory NHL	concentration not given, all TEAEs, grade 5		COVID-19 pneumonia incidence	0%
CC(C)N1CCC(NC(=O)c2ccc(Cl)cc2Cl)CC1	influenza A virus H5N1 A/Vietnam/1203/04					effective antiviral concentration	5 µM
Cn1cnc(Cn2c(=O)[nH]/c(=N\c3cc4cn(C)nc4cc3Cl)n(Cc3cc(F)c(F)cc3F)c2=O)n1			healthy Japanese adults, plasma	oral, 375 mg, day 1, fasted, with midazolam		Cmax	18100 ng/mL
